Assay results of several laboratories.
Each line is one published result; not all experiments were run side by side. Several values in a cell are separate wells, animals, samples, runs or records. ± gives the spread as reported.
Cell line: OVCAR-5

Cc1n[nH]c2nc(-c3ccc(Cl)cc3)c3c(NC(=O)c4ccccc4)nnc-3n12 — cell growth (SRB; 10 µM, NCI60 single-dose screen; reference: untreated): 124%
CCCN1CCN(c2ccc3[nH]c(-c4ccc5[nH]c(-c6cc(OC)c(OC)c(OC)c6)nc5c4)nc3c2)CC1 — growth percent (SRB; 10 µM, 48 h): 116%
CCCCS(=N)(=O)CCC(N)C(=O)O (stereo not shown) — cellular GSH concentration (LC-ESI-MS/MS, refers to: glutathione; 200 µM, 12 h): 6.6 ± 0.1 µM
NNc1nc(-c2ccc(Cl)cc2)c2c(NC(=O)c3ccccc3)nnc-2[nH]1 — cell growth (SRB; 10 µM, NCI60 single-dose screen; reference: untreated): 104%
CCCCN1CCN(c2ccc3[nH]c(-c4ccc5[nH]c(-c6ccc(C(F)(F)F)cc6)nc5c4)nc3c2)CC1 — growth percent (SRB; 10 µM, 48 h): -89.2%
Cn1cncc1C1=CN(c2ncnc3[nH]cnc23)CCS1 — TGI (ovarian cancer): 162 µM
O=C(Nc1nnc2n3c(=S)[nH][nH]c3nc(-c3ccc(Cl)cc3)c1-2)c1ccccc1 — cell growth (SRB; 10 µM, NCI60 single-dose screen; reference: untreated): 116%
COc1ccc(OC)c(-c2nc3ccc(-c4nc5ccc(N6CCN(C)CC6)cc5[nH]4)cc3[nH]2)c1 — growth percent (SRB; 10 µM, 48 h): 120%
O=C(Nc1nnc2n3c(nc(-c4ccc(Cl)cc4)c1-2)SCC3=O)c1ccccc1 — cell growth (SRB; 10 µM, NCI60 single-dose screen; reference: untreated): 101%
CCN(CC)c1ccc(C=NNC(=O)CSc2nc3ccccc3c(=O)n2Cc2ccc(S(N)(=O)=O)cc2)c(O)c1 — TGI (NCI five-dose screen): > 100 µM
CCOc1ccc(-c2nc3cc(-c4nc5cc(N6CCN(C)CC6)ccc5[nH]4)ccc3[nH]2)cc1OCC — growth percent (SRB; 10 µM, 48 h): 44.5%
O=C1NCCc2[nH]c(-c3ccncc3)cc21 — IC50 (MTS; NCI60 panel): 5.31 µM
C#C[C@@]1(O)[C@@H](CO)O[C@@H](n2cc(Cl)c3c(N)ncnc32)[C@@H]1O — TGI (SRB; NCI-60 screen): 70.8 µM and > 100 µM
CCCN1CCN(c2ccc3[nH]c(-c4ccc5[nH]c(-c6ccc(OCC)c(OCC)c6)nc5c4)nc3c2)CC1 — growth percent (SRB; 10 µM, 48 h): -15.2%
S=C([S][Au-][P+](CCCCCC[P+]([Au-][S]C(=S)n1cccn1)(c1ccccc1)c1ccccc1)(c1ccccc1)c1ccccc1)n1cccn1 — log10 TGI (cell growth, NCI-60 screen; ovarian cancer): -4.54
CSc1nc(-c2ccc(Cl)cc2)c2c(NC(=O)c3ccccc3)nnc-2[nH]1 — cell growth (SRB; 10 µM, NCI60 single-dose screen; reference: untreated): 109%
CCCN1CCN(c2ccc3[nH]c(-c4ccc5[nH]c(-c6ccc(C(F)(F)F)cc6)nc5c4)nc3c2)CC1 — growth percent (SRB; 10 µM, 48 h): -24.9%
O=C(Nc1nnc2n3c(Cc4ccccc4)n[nH]c3nc(-c3ccc(Cl)cc3)c1-2)c1ccccc1 — cell growth (SRB; 10 µM, NCI60 single-dose screen; reference: untreated): 122%
C#C[C@@]1(O)[C@@H](CO)O[C@@H](n2cc(I)c3c(N)ncnc32)[C@@H]1O — TGI (SRB; NCI-60 screen): > 100 µM

A few entries again:
CCCN1CCN(c2ccc3[nH]c(-c4ccc5[nH]c(-c6ccc(C(F)(F)F)cc6)nc5c4)nc3c2)CC1 — growth percent (SRB; 10 µM, 48 h): -24.9%
O=C(Nc1nnc2n3c(Cc4ccccc4)n[nH]c3nc(-c3ccc(Cl)cc3)c1-2)c1ccccc1 — cell growth (SRB; 10 µM, NCI60 single-dose screen; reference: untreated): 122%
CCCN1CCN(c2ccc3[nH]c(-c4ccc5[nH]c(-c6cc(OC)c(OC)c(OC)c6)nc5c4)nc3c2)CC1 — growth percent (SRB; 10 µM, 48 h): 116%
